Assay results gathered from unrelated publications.
Lines come from different studies, so protocols differ. ± marks the error that the study gave.

Molecule	test	test system	setting	scale	quantity	result
Cn1c(=O)cc(N2CCC[C@@H](N)C2)n(Cc2ccccc2C#N)c1=O		male ICR mouse, plasma	oral, 3 mg/kg, 24 h		AUC	3460 ng·h/mL
CS(=O)(=O)n1cc2c(n1)CN([C@H]1CO[C@H](c3cc(F)ccc3F)[C@@H](N)C1)C2		healthy male human, plasma	oral, 5 mg single, fasted, geometric mean		concentration at 168 h	6.75 nM
Cn1cncc1-c1c(F)cncc1NC(=O)c1c(N)nn2cc(F)cnc12		human patients, plasma	oral, 180 mg once daily, steady state	reference: in vitro pCHK1 IC90	Cav over IC90 ratio	~30 fold
C=CC(N)CCC(=O)O (stereo not drawn)		male Sprague-Dawley rat, plasma	intravenous, 1.0 mg/kg, formulation 0		AUC(0-inf)	2420 ± 182 ng·h/mL
Cc1cccc(C)c1OCC(=O)N[C@@H](Cc1ccccc1)[C@@H](O)C[C@H](Cc1ccccc1)NC(=O)[C@H](C(C)C)N1CCCNC1=O	UV spectroscopy	phosphate buffer with HPMCAS	pH 6.5, 37 °C		amorphous solubility	15.4 µg/mL
CC[C@H](C)[C@@H]1NC(=O)[C@H](Cc2ccc(O)cc2)NC(=O)[C@@H](N)CSSC[C@@H](C(=O)N2CCC[C@H]2C(=O)N[C@@H](CC(C)C)C(=O)NCC(N)=O)NC(=O)[C@H](CC(N)=O)NC(=O)[C@H](CCC(N)=O)NC1=O		male Wistar rat, plasma	intravenous, 0.1 mg/kg		Vd	0.085 L/kg
CS(=O)(=O)Nc1ccc(C(=O)O[C@@H](Cc2c(Cl)c[n+]([O-])cc2Cl)c2ccc(OC(F)F)c(OCC3CC3)c2)cc1OCC1CC1		human, plasma	inhalation, 2400 µg twice daily, day 1, geometric mean		AUC(0-12h)	11.6 ng·h/mL
CC1=C2C[C@H]3[C@@H](CC[C@@H]4C[C@H](NS(C)(=O)=O)CC[C@@]43C)[C@@H]2CC[C@@]2(C1)O[C@@H]1C[C@H](C)CN[C@H]1[C@H]2C		patients, plasma	oral, 160 mg daily, day 22, cycle 1		Cmax	450 ng/mL
C[C@]12CC[C@@H]3c4ccc(O)cc4CC[C@H]3[C@@H]1C[C@@H](O)[C@@H]2O	GC-MS	breast cancer women on NSAI, serum	vaginal, 0.03 mg, 1 h, day 0		minimum serum concentration	0 ng/mL
C=CC(=C)CC[C@]1(C)[C@H](C)C[C@H](OC(=O)CCCCCCCCC)[C@@]23C(=C[C@H](OC(C)=O)C[C@@H]12)[C@@H](OC(C)=O)O[C@H]3OC(C)=O	haemolysis		500 µM		haemolysis	50.6%
C=C(F)C(=O)N1CCN(c2nc(OC[C@@H]3CCCN3C)nc3c2CCN(c2cccc4cccc(Cl)c24)C3)C[C@@H]1CC#N		Sprague-Dawley rat, male	oral, 30 mg/kg, IV 5 mg/kg reference		oral bioavailability	50.7%
Clc1ccccc1C(c1ccccc1)(c1ccccc1)n1ccnc1	equilibrium dialysis	500 nM CYP26A1 in buffer	1 µM, 12 h, pH 7.4, spectral binding conditions		unbound fraction	0.025 ± 0.001
C[C@@H](Oc1ccc(S(C)(=O)=O)cc1C(=O)N1C[C@@H]2C[C@]2(c2cc(C(F)(F)F)on2)C1)C(F)(F)F		human male, plasma	oral, 25 mg once daily, 312 h		trough concentration	266 nM
Cc1nc2cccc(OCC(C)(C)C(=O)NC(C)C)c2c(N)c1C(=O)O		female Sprague-Dawley rat, plasma	oral, 100 mg/kg, single dose		half-life	0.99 h
N#CN1C[C@H](n2nc(-c3ccc(Oc4ccc(Cl)cn4)cc3)c(C(N)=O)c2N)CCC12CC2		human, plasma	oral, 100 to 800 mg, single ascending dose		MRT	22.9 to 31.1 h
CCCC[C@H](NC(C)=O)C(=O)N[C@H]1CCC(=O)NC[C@@H](C(=O)N[C@@H](Cc2c[nH]c3ccccc23)C(N)=O)NC(=O)[C@H](CCCNC(=N)N)NC(=O)[C@@H](Cc2ccccc2)NC(=O)[C@H](Cc2c[nH]cn2)NC1=O		beagle dog, male, plasma	subcutaneous, 40.0 mg/kg daily, day 28		Tmax	0.44 h
CCCOc1ccc([C@H]2CNC(=O)N2c2ccc3[nH]cnc3c2)cc1		non-elderly adults, fasted, plasma	oral, 200 mg twice daily, day 11, oral solution, geometric mean		AUC(0-12h)	1830 ng·h/mL
CCn1ncc2c1-c1cnc(N)c(c1)O[C@H](C)c1cc(F)ccc1-c1nn(C)nc1C2		nude mouse PDX model, plasma	oral, 0.04 mg/kg twice daily, 12 h		free plasma concentration	0.2 to 0.7 nM

Molecule	test	test system	setting	scale	quantity	result
CCN1C(=O)CNc2ncc(-c3ccc(-c4nc[nH]n4)nc3C)nc21		human, plasma	oral, 15 mg twice daily, multiple doses		AUC(0-12h)	1030 ng·h/mL
CO/N=C1\C[C@]2(C[C@@H]3C[C@@H](C/C=C(\C)C[C@@H](C)/C=C/C=C4\CO[C@@H]5[C@H](O)C(C)=C[C@@H](C(=O)O3)[C@]45O)O2)O[C@H](/C(C)=C/C(C)C)[C@H]1C	HPLC, non-compartmental	Corriedale lambs, parasitized, plasma	oral, 0.2 mg/kg		elimination half-life	96 h
N[C@@H](CC(=O)O)Cn1nnc(-c2ccc(Oc3ncc(Cl)cc3F)cc2)n1		human, plasma	20 mg twice daily, 12 h		trough concentration at steady state	30 to 40 ng/mL
Cc1nc(-c2ccc(OCC(C)C)c(C#N)c2)sc1C(=O)O		adults with gout, plasma	oral, 40 mg, added: verinurad 15 mg		AUC(0-24)	2770 ng·h/mL
[2H]C([2H])([2H])Oc1cc2c(cc1OC([2H])([2H])[2H])C1CC(=O)C(CC(C)C)CN1CC2 (stereo not drawn)	measured: deuterated β-HTBZ	healthy human volunteers, plasma	oral, 24 mg single dose, standard meal		dose-normalized AUC(0-t)	5.7 ng·h/mL
O=C1Oc2ccccc2C(=O)CCc2ccccc21	nephelometry	aqueous buffer	30 min, pH 6.5		kinetic solubility	> 100 µg/mL
C/C=C/C[C@@H](C)C(=O)[C@H]1C(=O)N[C@@H](C(C)C)C(=O)N(C)CC(=O)N(C)[C@@H](CC(C)C)C(=O)N[C@@H](C(C)C)C(=O)N(C)[C@@H](CC(C)C)C(=O)N[C@@H](C)C(=O)N[C@H](C)C(=O)N(C)[C@@H](CC(C)C)C(=O)N(C)[C@@H](CC(C)C)C(=O)N(C)[C@@H](C(C)C)C(=O)N1C		Sprague Dawley rat, plasma	multiple intravenous bolus, dose not given, 4 h, minimal efficacious dose		free steady-state plasma concentration	411 nM
Cl.Cl.Clc1cc(Br)ccc1-c1ccc(CNCC2CCNCC2)o1		0.1 M sodium acetate with 0.01% Triton X-100	pH 5.5		maximum solubility	300 µM
Cn1c(-c2ccc(C(N)=O)cc2F)nnc1C(C)(C)Oc1c(F)cc(Cl)cc1F		healthy young Japanese subjects, plasma	oral, 10 mg once daily, day 18, 14 days dosing		half-life median	23 h
O=C1Nc2ccccc2C(=NO)CCc2ccccc21	nephelometry	aqueous buffer	30 min, pH 6.5		kinetic solubility	> 100 µg/mL
C[C@@H](c1ncncc1F)[C@](O)(Cn1cncn1)c1ccc(F)cc1F		patients, hematological disorders, proton pump inhibitor users, plasma	200 mg, 12 h, steady state, median		trough concentration	2860 ng/mL
Cn1c(C(F)(F)F)cc(=O)n(-c2cc(Oc3cccnc3OCC(=O)O)c(Cl)cc2F)c1=O		beagle dog, female, plasma	oral, 300 mg/kg/day epyrifenacil, 13 weeks		AUC(0-24h)	51200 ng·h/mL
CC[C@H](C)[C@H](NC(=O)[C@H](CC(C)C)NC(=O)[C@H](Cc1c[nH]c2ccccc12)NC(=O)[C@H](C)NC(=O)[C@@H](NC(=O)[C@H](Cc1ccccc1)NC(=O)[C@H](CC(=O)O)NC(=O)[C@H](CCCNC(=N)N)NC(=O)[C@H](C)NC(=O)[C@H](C)NC(=O)[C@H](CC(C)C)NC(=O)[C@H](C)NC(=O)[C@H](CC(=O)O)NC(=O)[C@H](CC(C)C)NC(=O)[C@@H](NC(=O)[C@@H](NC(=O)[C@H](C)NC(=O)[C@H](CC(C)C)NC(=O)[C@H](CCC(=O)O)NC(=O)[C@H](CO)NC(=O)[C@H](CO)NC(=O)[C@H](Cc1ccccc1)NC(=O)[C@@H](NC(=O)CNC(=O)[C@H](CCC(=O)O)NC(=O)CNC(=O)[C@@H](N)Cc1cnc[nH]1)[C@@H](C)O)[C@@H](C)O)[C@@H](C)CC)[C@@H](C)CC)C(=O)N[C@@H](C)C(=O)N[C@H](C(=O)N[C@@H](CCCCN)C(=O)N[C@H](C(=O)N[C@H](C(=O)N[C@@H](CC(=O)O)C(=O)N[C@@H](CCCCN)C(=O)N[C@@H](CCCCN)C(=O)N[C@@H](CCCCN)C(=O)N[C@@H](CCCCN)C(=O)N[C@@H](CCCCN)C(=O)N[C@@H](CCCCN)C(N)=O)[C@@H](C)O)[C@@H](C)CC)[C@@H](C)O	immunoaffinity LC-MS/MS	healthy human subjects, plasma	subcutaneous, 5 mg once weekly, day 36 after 6 doses, steady state, geometric mean		AUCtau	0.833 nM·h
CC(C)NC[C@@H](C(=O)N1CCN(c2ncnc3c2[C@H](C)C[C@H]3O)CC1)c1ccc(Cl)cc1		human, Mild hepatic function, plasma	oral, 100 mg single dose, NCI classification, geometric mean		AUC(0-∞)	522 ng·h/mL
colistin B methanesulfonate	one-compartment PK model	rat	i.p., 40 mg/kg colistin base activity		rate of conversion to colistin	1.46 ± 0.124 mL/min/kg
NC(=O)CC[C@@H]1NC(=O)[C@H](Cc2ccccc2)NC(=O)[C@H](Cc2ccc(O)cc2)NC(=O)CCSSC[C@@H](C(=O)N2CCC[C@H]2C(=O)N[C@H](CCCN=C(N)N)C(=O)NCC(N)=O)NC(=O)[C@H](CC(N)=O)NC1=O	UPLC-MS/MS	human plasma	156.23 pg/mL, three cycles		freeze-thaw stability	91.1%
CC(=O)Nc1ccc(O)cc1	glutathione conjugation	rat liver S9	100 µM, 2 h, pH 7.4, added: glutathione 0.2 mM		parent remaining	43%
CC(=O)Nc1ccc(O)cc1		Bactrian camel, plasma	intramuscular, 4 mg/kg single dose		elimination half-life	5.59 ± 0.17 h
